Published values gathered from unrelated publications.
Lines come from different studies, so protocols differ. “And” joins repeats or separate records; there may be more than shown. Numbers after ± are the reported error.

O=Cc1cc(C(F)(F)F)cc(C(F)(F)F)c1
degradation rate constant (chemical stability, HPLC-MS; borate buffered saline; pH 10.2, no N-acetyl-lysine): 0.1 h⁻¹

O=C(Nc1cnccc1-c1ccc([18F])nc1)c1ccnc(NC(=O)C2CC2)c1
SUV (ex vivo gamma counting; FVB/NJ mice, both sexes, large intestine; intravenous, 120 min, mean, P-gp inhibitor pretreatment, with: tariquidar 15 mg/kg iv): 0.676

CN1CCC[C@]1(C)/C=C/S(=O)(=O)NC(=O)Nc1c2c(cc3c1CC(O)C3)CCC2 (some centres unmarked)
AUC(0-tau) (human, plasma; oral, 100 mg twice daily of parent drug, day 14, metabolite of dosed drug): 114000 ng·h/mL

COc1cccc(OC)c1-c1cc(C(=O)NC2(C(=O)O)C3CC4CC(C3)CC2C4)nn1-c1ccc(C(=O)N(C)CCCN(C)CCCN(C)C(=O)[C@H](CCCCNC(=O)[C@H](CC(C)C)NC(=O)C2OC2C(=O)O)NC(=O)CN2CCN(CC(=O)[O-])CCN(CC(=O)[O-])CCN(CC(=O)[O-])CC2)cc1C(C)C.[177Lu+3] (mixture of isomers)
tumour-to-liver ratio (mouse, HT-29 xenograft; 72 h post injection, biodistribution; baseline: tumour over liver uptake): 7.31

O=C(Nc1cccc(C(=O)N2CCC(c3nc(-c4ccccc4)n[nH]3)CC2)c1)c1ccccc1
intrinsic clearance, scaled (CD-1 mouse liver microsomes; pH 7.4, with: NADPH): 340 mL/min/kg

Cc1c(Cc2cccc(OC(C)(C)C(=O)O)c2)c2ccc(C(=O)N[C@@H](C)c3cccc(C(C)(C)C)c3)cc2n1C(C)C
half-life (metabolic stability; mouse, liver microsomes): 0.933 h

Cc1cc(-c2ccc(C(=O)[C@@H]3CCCC[C@H]3C(=O)Nc3cnn4c3C(=O)NCC4)cc2)[nH]n1
radioactivity recovery per interval (human, faeces; oral, 200 mg, 216-240 h; baseline: dose): 0.28% and 2.09%

Cc1ccc(OCC(=O)N(Cc2cccs2)c2ccn[nH]2)cc1
remaining parent compound (Sprague-Dawley rat liver microsomes; 10 µM, 10 min): 29.5%

CN1CCC[C@]1(C)/C=C/S(=O)(=O)NC(=O)Nc1c2c(cc3c1C(O)CC3)CCC2 (some centres unmarked)
AUC(0-tau) (human, plasma; oral, 12.5 mg twice daily of parent drug, day 1, metabolite of dosed drug): 15300 ng·h/mL

CCCCN1C(=O)c2cccc3c(NCCCCCCN4CCOCC4)ccc(c23)C1=O
fluorescence quantum yield (1,4-dioxane): 1.06

COC(=O)[C@@]1(C)C=C(C(=O)Nc2cccc(C(=O)Nc3ccc(Nc4nccc(-c5cccnc5)n4)c(C)c3)c2)C(=O)CC1
remaining compound (rat Wistar male, plasma; 1 µM, 30 min): 18.9% and 20.1%

O=C([O-])CN1CCN(CC(=O)[O-])CCN(CC(CCCc2ccccc2[N+](=O)[O-])N(CC(=O)[O-])CC(=O)[O-])CC1.[177Lu+3] (centres unmarked)
intact radiolabelled complex (TLC; human serum; 279 h, pH 7, 37 °C): 99.8 ± 0.1%

CC(C)(O)c1ncc([S@](N)(=O)=NC(=O)Nc2c3c(cc4c2CCC4)CCC3)s1
share of subjects with TEAEs (measured: all system organ classes; healthy human subjects; oral, dose not given, all active doses): 63%

O=[N][Fe]1([N]=O)[S](CCO)[Fe]([N]=O)([N]=O)[S]1CCO
serum GOT (aged C57BL/6JNarl mice on Western diet; po, 2.65 mg/kg daily, 16 weeks): 76 ± 57.6 U/dL

CCCC[C@H](NC(=O)COCCOCCNC(=O)CN1CCN(CC(=O)O)CCN(CC(=O)O)CC1)C(=O)N[C@H]1CC(=O)NCCCC[C@@H](C(N)=O)NC(=O)[C@H](Cc2c[nH]c3ccccc23)NC(=O)[C@H](CCCNC(=N)N)NC(=O)[C@@H](Cc2ccccc2)NC(=O)[C@H](Cc2c[nH]cn2)NC1=O [fluorine-18 labelled]
urinary excretion (C57 mice B16/F10 melanoma, urine; intravenous, dose not given, 1 h, with: NDP-MSH 10 µg blockade): 77.8 ± 3.5%

COc1ccc(Nc2nc(Nc3ccc(OCCOCCOCC[18F])cc3)ncc2Br)cc1
uptake ratio (ICR mice, S180 tumour; intravenous, 370 kBq, 5 min; baseline: tumour over muscle): 0.99

Cc1noc(C)c1Cn1cc(N2C(=O)CN(Cc3cccc(O[C@@H]4O[C@H](C(=O)O)[C@@H](O)[C@H](O)[C@H]4O)c3)C2=O)cn1
plasma concentration (Sprague-Dawley rat, male; oral, 30 mg/kg of parent drug, 0.5 h): 8050 ng/mL

CC(=O)N([O-])CCCCCNC(=O)CCC(=O)N([O-])CCCCCNC(=O)CCC(=O)N([O-])CCCCCN.[89Zr+4]
tracer uptake (mouse, liver; 4 h): 2.09 %ID/g

CCCCN1C(=O)c2cccc3c(NCCN4CCOCC4)ccc(c23)C1=O
absorption maximum (methanol): 438 nm

C=C(NC(=O)c1csc(-c2nc3c(cc2O)-c2nc(cs2)C(=O)NC(C(C)O)C(=O)NC(=C(C)OC)c2nc(cs2)C(=O)NC2c4nc(cs4)C(=O)NC(COC(=O)c4c5c6c(cccc6n4O)COC(=O)C(OC4CC(C)(O)C(N(C)C)C(C)O4)C2OC5)c2nc-3cs2)n1)C(N)=O (centres unmarked)
MRT(0-t) (ICR mice, Streptococcus pneumoniae ATCC 49169 infected, immunocompromised, blood; intravenous, 4 mg/kg/day three times daily): 6.48 h

CC[C@H](C)[C@@H]1NC(=O)[C@H](Cc2ccc(O)cc2)NC(=O)CCCSC[C@@H](C(=O)N(CC(=O)N[C@@H](CC(C)C)C(=O)NCC(N)=O)Cc2ccc(F)cc2)NC(=O)[C@H](CC(N)=O)NC(=O)[C@H](CCC(N)=O)NC1=O
Cmax (human, plasma; intranasal, 400 µg, single dose): 0.163 ng/mL

O=C(Nc1cnccc1-c1ccc([18F])cc1)c1ccnc(NC(=O)C2CC2)c1
SUV (FVB/NJ mouse, both sexes, brain; intravenous, 50 min, with: tariquidar 15 mg/kg iv): 0.37

N#C[C@@H]1CC(F)(F)CN1C(=O)CNC(=O)c1ccnc2c(NC(=O)[C@H](CCCCNC(=O)CCOCCOCCOCCOCCOCCOCCNC(=O)CN3CCN(CC(=O)[O-])CCN(CC(=O)[O-])CCN(CC(=O)[O-])CC3)NC(=O)CCCc3ccc(I)cc3)cccc12.[177Lu+3]
tissue uptake (mouse, U-87 MG tumour xenograft, lung; 1 h): 10 ± 4.4 %ID/g

CCCCN1C(=O)c2cccc3c(NCCCCCCCCCCN4CCOCC4)ccc(c23)C1=O
absorption maximum (ethyl acetate): 428 nm

C=CC(=O)Nc1cc(Nc2nccc(-c3c[nH]c4ccccc34)n2)c(OC)cc1N(C)CCN(C)C
recovery (storage stability; human dried blood spot; 10 d, on ice, LQC level): 59.1%

O=C(Nc1ccc(C(F)F)cc1)[C@H](CC1CCCCC1)Nc1nn2c(=O)ccnc2s1
dose-normalized AUC (female BALB/c nude mice, plasma; oral, 10 mg/kg): 113 ng·h/mL
